Measured values of several laboratories.
Compare with care: the assays were run in different laboratories. Values joined by “and” are separate records of one study, mostly repeats; a detail may differ. ± marks the error that the study gave.
Chain of UniProt Q8R2Y0 (whole entry, looked up): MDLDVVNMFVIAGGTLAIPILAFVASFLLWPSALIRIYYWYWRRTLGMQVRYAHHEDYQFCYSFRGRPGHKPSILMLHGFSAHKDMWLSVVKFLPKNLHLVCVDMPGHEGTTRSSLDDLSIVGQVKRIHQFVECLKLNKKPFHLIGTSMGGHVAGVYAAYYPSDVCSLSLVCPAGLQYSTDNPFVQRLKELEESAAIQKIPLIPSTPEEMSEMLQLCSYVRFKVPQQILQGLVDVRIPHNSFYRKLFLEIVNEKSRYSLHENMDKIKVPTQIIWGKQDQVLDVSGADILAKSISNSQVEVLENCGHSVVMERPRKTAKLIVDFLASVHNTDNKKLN
Chain of UniProt O60285 (whole entry, looked up): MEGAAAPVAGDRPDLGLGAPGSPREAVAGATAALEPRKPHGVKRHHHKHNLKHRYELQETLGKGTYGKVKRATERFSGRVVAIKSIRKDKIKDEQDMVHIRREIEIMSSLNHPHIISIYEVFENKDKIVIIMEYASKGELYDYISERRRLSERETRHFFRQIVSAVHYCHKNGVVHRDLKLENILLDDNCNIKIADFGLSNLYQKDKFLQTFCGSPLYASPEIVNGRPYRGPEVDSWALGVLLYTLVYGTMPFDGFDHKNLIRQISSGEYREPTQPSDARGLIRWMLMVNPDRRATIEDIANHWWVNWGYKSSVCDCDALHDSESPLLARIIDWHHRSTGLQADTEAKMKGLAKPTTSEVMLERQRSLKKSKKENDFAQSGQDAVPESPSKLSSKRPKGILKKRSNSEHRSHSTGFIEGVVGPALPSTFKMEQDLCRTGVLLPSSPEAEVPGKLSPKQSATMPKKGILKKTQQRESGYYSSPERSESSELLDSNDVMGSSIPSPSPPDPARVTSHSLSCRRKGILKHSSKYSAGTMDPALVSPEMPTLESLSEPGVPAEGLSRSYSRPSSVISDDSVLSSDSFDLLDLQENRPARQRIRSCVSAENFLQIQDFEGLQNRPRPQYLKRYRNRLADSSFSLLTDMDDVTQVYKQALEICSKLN
Chain of UniProt P04150 (whole entry, looked up): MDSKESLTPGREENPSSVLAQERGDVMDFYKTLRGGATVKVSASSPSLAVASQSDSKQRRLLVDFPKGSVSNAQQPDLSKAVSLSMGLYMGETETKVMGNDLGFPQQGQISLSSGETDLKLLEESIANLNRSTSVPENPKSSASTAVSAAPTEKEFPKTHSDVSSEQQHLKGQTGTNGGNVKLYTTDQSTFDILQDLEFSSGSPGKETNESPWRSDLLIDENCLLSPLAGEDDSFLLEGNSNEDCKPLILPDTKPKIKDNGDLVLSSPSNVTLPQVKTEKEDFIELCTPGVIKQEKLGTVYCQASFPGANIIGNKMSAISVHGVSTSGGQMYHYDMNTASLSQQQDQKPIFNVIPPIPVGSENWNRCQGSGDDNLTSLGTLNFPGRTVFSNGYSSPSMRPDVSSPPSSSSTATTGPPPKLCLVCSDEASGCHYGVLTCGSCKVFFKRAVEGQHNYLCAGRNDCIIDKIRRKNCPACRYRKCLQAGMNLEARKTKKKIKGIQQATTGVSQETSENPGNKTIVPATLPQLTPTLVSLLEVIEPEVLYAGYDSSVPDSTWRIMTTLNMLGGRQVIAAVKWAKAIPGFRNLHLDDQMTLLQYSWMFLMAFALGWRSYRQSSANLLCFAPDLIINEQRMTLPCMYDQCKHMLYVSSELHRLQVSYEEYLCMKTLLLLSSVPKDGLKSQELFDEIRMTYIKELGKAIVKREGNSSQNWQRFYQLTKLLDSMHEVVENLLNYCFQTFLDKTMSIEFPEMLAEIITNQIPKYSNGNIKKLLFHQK
Chain of UniProt P35372 (whole entry, looked up): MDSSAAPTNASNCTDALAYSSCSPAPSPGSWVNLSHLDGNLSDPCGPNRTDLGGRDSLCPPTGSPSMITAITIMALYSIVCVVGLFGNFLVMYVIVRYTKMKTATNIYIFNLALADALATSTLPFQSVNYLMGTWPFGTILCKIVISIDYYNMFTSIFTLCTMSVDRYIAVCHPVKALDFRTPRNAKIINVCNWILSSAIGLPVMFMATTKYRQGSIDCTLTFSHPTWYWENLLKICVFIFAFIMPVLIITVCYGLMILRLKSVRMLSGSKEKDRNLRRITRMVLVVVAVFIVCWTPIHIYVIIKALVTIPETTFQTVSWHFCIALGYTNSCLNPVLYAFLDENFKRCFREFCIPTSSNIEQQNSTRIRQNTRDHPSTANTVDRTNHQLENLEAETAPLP
Chain of UniProt P07949 (whole entry, unmodified, looked up): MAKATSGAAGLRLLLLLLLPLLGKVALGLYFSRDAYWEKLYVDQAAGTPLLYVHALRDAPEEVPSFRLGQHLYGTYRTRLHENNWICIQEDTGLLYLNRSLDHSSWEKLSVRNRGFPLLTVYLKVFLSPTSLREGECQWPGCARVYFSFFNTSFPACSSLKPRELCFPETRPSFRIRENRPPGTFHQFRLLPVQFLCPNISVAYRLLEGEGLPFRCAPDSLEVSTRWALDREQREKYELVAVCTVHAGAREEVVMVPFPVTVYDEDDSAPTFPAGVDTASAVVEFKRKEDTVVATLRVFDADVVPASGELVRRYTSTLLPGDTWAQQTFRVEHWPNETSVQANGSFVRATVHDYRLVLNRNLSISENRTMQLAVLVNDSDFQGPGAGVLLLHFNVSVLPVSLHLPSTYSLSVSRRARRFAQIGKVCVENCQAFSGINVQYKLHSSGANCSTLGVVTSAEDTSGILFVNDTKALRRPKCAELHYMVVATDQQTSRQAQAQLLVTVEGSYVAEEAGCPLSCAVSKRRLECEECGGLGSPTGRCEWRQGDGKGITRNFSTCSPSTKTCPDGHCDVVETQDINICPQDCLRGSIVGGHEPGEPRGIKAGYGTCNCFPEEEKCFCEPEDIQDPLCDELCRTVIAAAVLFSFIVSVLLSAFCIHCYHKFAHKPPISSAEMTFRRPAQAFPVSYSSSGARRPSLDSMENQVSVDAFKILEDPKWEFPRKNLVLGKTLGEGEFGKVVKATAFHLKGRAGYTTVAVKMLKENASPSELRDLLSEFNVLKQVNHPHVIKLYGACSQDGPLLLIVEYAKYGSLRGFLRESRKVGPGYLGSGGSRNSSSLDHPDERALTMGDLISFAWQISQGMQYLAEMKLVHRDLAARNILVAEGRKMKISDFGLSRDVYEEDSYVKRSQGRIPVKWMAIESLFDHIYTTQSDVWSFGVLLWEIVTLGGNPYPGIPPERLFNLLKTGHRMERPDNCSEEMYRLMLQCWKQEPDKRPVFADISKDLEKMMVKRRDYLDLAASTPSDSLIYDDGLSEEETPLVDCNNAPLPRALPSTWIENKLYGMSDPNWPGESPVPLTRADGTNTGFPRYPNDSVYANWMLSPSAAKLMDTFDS
Chain of UniProt Q5VSL9 (whole entry, looked up): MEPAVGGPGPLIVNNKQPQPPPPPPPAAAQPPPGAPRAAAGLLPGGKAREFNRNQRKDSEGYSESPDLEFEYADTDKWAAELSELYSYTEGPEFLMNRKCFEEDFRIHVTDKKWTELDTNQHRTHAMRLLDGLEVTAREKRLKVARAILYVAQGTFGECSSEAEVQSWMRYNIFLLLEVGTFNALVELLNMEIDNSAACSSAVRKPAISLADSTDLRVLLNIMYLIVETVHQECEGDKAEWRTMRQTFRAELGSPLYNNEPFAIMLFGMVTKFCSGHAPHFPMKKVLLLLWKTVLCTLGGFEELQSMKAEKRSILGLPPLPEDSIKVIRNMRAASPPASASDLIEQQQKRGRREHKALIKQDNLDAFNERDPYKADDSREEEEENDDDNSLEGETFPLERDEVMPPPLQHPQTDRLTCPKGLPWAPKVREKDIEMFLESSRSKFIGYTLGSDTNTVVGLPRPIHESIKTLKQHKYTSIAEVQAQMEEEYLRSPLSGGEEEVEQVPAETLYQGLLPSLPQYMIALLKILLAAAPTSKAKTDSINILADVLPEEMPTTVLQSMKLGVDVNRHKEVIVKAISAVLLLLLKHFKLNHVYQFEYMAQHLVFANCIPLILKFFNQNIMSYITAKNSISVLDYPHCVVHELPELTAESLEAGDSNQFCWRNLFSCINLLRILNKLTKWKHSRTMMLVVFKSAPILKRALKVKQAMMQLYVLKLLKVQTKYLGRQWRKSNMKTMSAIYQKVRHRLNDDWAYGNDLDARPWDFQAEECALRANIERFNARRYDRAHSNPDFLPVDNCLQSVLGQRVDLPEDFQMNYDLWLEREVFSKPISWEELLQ
Chain of UniProt O14757 (whole entry, looked up): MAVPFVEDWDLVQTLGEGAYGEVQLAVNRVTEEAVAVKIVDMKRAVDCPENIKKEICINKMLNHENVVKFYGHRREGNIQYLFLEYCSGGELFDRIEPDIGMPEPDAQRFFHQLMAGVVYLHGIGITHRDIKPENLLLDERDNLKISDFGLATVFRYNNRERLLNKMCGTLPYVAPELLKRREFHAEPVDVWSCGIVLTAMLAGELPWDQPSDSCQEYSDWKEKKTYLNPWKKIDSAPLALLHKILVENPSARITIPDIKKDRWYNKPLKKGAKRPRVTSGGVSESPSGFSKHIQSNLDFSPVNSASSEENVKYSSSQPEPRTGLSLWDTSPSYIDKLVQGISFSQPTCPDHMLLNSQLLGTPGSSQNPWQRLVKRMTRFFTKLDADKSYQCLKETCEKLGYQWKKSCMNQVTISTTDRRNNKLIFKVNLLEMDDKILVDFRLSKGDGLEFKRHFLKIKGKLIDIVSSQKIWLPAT
Chain of UniProt P0A988 (whole entry, unmodified, looked up): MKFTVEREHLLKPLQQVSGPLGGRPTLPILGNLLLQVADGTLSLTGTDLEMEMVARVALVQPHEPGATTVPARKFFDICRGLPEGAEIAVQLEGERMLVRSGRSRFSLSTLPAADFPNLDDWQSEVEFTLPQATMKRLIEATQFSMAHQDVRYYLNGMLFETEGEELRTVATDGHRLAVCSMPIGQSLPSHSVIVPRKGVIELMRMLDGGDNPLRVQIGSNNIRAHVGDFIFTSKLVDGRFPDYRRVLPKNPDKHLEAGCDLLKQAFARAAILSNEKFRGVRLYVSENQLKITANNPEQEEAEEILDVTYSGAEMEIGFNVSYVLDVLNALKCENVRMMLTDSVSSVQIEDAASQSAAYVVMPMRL

Structure (SMILES) = COc1ccccc1-c1nc2sc3c(c2c(=O)o1)CCC3; target = Genome polyprotein, 3C protease (rhinovirus B14, UniProt P03303); assay = enzyme activity, inhibitor, SAMDI mass spectrometry; test system = human rhinovirus; conditions = 10-point dose response; endpoint = Hill slope; value = 1.52
Structure (SMILES) = CN(C)CCCSC(=S)N1CCN(C(=O)/C=C/c2coc3ccccc3c2=O)CC1; target = Nucleoprotein (N, Tomato spotted wilt virus, UniProt P25999, Y184A); assay = binding, microscale thermophoresis; conditions = 15.62 µM; how to read = dose series; endpoint = MST response; value = 839 a.u.
Structure (SMILES) = O=C1NC(=O)c2c1c1cc(F)c[n+]3c1c1c2c2cc(O)ccc2[n]1[Ru-4]312([N]=C=S)[S+]3CC[S+]1CC[S+]2CC3 (stereo not shown); target = Serine/threonine-protein kinase Chk1 (CHEK1, Homo sapiens, UniProt O14757); assay = enzyme activity; conditions = 100 nM, human enzyme, together with: 10 µM ATP; how to read = relative to: untreated; endpoint = remaining activity; value = 65%
Structure (SMILES) = CN(C)[C@H]1C[C@@]23CC[C@@]4(O2)C(=CC[C@]2(C)[C@@H](c5ccc6ccncc6c5)CC[C@H]24)C=C3[C@@H](O)[C@@H]1O; target = NUAK family SNF1-like kinase 1 (NUAK1, Homo sapiens, UniProt O60285); assay = ATP probe labelling, inhibitor, KiNativ profiling; conditions = 0.1 µM; endpoint = inhibition; value = -7.3%
Structure (SMILES) = C=CC(=O)NC[C@H](NC(=O)[C@H](CC1CCCCC1)NC(=O)[C@H](CCC(N)=O)NC(C)=O)C(=O)N[C@@H](CC(C)C)C(=O)N[C@@H](Cc1ccccc1)C(=O)O; target = Beta sliding clamp (Escherichia coli, UniProt P0A988, H175G); assay = isothermal titration calorimetry; conditions = 25 °C; endpoint = ΔG; value = -34.7 kJ/mol
Structure (SMILES) = C[C@@H](Cc1ccsc1)NC(=O)NC[C@H](Cc1ccc(O)cc1)N(C)C; target = Mu-type opioid receptor, with GoA (OPRM1, Homo sapiens, UniProt P35372); assay = receptor activation, agonist; endpoint = Emax; value = 80 ± 7%
Structure (SMILES) = COCC1CCCCN1C(=O)n1cc(C(O)(c2ccccc2)c2ccccc2)nn1 (stereo not shown); target = Monoacylglycerol lipase ABHD6 (Abhd6, Mus musculus, UniProt Q8R2Y0); assay = probe labelling, inhibitor, competitive ABPP-SILAC; test system = mouse T cells; conditions = concentration not given, 4 h, single peptide; how to read = relative to: treated over DMSO cells, lower = stronger inhibition; endpoint = SILAC activity ratio; value = 1.1 and 0.8 and 0.74 and 1.16
Structure (SMILES) = CC(C)[C@H]1NC(=O)C[C@H]2/C=C/CCSSC[C@@H](NC1=O)C(=O)N[C@H](Cc1cccc3ccccc13)C(=O)NCC(=O)O2; target = Proto-oncogene tyrosine-protein kinase receptor Ret (RET, Homo sapiens, UniProt P07949, G691S); assay = enzyme activity, inhibitor; conditions = 10 µM; endpoint = inhibition; value = 7.2%
Structure (SMILES) = C#CCCCCOc1ccc2c(c1)CCCN2C(=O)CCl; target = Striatin-interacting protein 1 (STRIP1, Homo sapiens, UniProt Q5VSL9); assay = MS-ABPP alkyne probe; test system = Ramos cell lysate; how to read = relative to: high over low probe; endpoint = cysteine reactivity ratio; value = 1.99
Structure (SMILES) = O=C(O)c1ccc(/N=N/c2cccc([B-](F)(F)F)c2)cc1.[K+]; target = Chymotrypsinogen A (Bos taurus, UniProt P00766); assay = enzyme activity, inhibitor; conditions = together with: Suc-AAPF-AMC; how to read = relative to: Ki cis over Ki trans; endpoint = switching factor; value = 7 ± 2.5
Structure (SMILES) = C/C(=N\OCCCN1CCCCC1)c1ccc(C(F)(F)F)cc1; target = Glucocorticoid receptor (NR3C1, Homo sapiens, UniProt P04150); assay = reporter gene, agonist, luciferase reporter; conditions = 10 µM; endpoint = activation; value = -0.63%
Structure (SMILES) = CC[C@H](C)[C@H](NC(=O)[C@@H](NC(=O)[C@@H](NC(=O)[C@H](Cc1ccccc1)NC(=O)[C@H](C)NC(=O)[C@H](CCCNC(=N)N)NC(=O)CNC(=O)[C@@H]1CCCN1C(=O)CNC(=O)[C@@H](N)CCCCNC(=O)c1ccc2c(c1)C(=O)OC21c2ccc(N(C)C)cc2Oc2cc(N(C)C)ccc21)C(C)C)[C@@H](C)O)C(=O)O; target = H-2 class I histocompatibility antigen, D-D alpha chain, 18 (H2-D1, Mus musculus, UniProt P01900); assay = peptide dissociation from free MHC-I, fluorescence anisotropy and NMR; conditions = H-2D murine MHC-I, human β2m; endpoint = dissociation rate constant; value = < 1e-05 s⁻¹
Structure (SMILES) = CS(C)(=O)=Nc1ccc(-c2ccc(-c3nc4cc(O[C@@H]5CO[C@H]6[C@@H]5OC[C@H]6O)[nH]c4cc3F)cc2)cc1; target = Phosphatidylinositol 3-kinase C2 domain-containing subunit gamma (PIK3C2G, Homo sapiens, UniProt O75747); assay = enzyme activity, inhibitor; conditions = 10 µM; endpoint = inhibition; value = 6%

Repeated from above:
Structure (SMILES) = CS(C)(=O)=Nc1ccc(-c2ccc(-c3nc4cc(O[C@@H]5CO[C@H]6[C@@H]5OC[C@H]6O)[nH]c4cc3F)cc2)cc1; target = Phosphatidylinositol 3-kinase C2 domain-containing subunit gamma (PIK3C2G, Homo sapiens, UniProt O75747); assay = enzyme activity, inhibitor; conditions = 10 µM; endpoint = inhibition; value = 6%
